{"data": "Results collected from several papers", "method": "steady-state kinetics", "B1": "anthranilate synthase (Streptomyces venezuelae, UniProt O30589); chain MDLSRLLDPSCPPFALLRRRTPGRDHDTVEVLIGRVHEAERLAELPVGPLPALALVPFRQIRERGFDVRDDGTPLSVLVAEETHTLPLAEALDRLPAHDVTVEDGGFDVSDEEYAGIVRRVIDEEIGSGEGANFVIRRTYTGEIPGFGRADALALFRRLLAGERGAYWTFVVHTGDRTLVGASPEVHVRMSGGTVVMNPISGTYRYPAGAAPTAEGLLAFLADRKETEELSMVVDEELKMMCTVGDMGGVVIGPRLKEMAHLAHTEYELRGRSSLDVREVLRETMFAATVTGSPVQNACRVIERHEVGGRGYYAGALALLGTDENGAQSLDSPILIRTADIAADGHLRVPVGATLVRHSDPAGEVAETHAKAAGVLTALGVREGRPAGGPAPAPTALADDPRVRAALDARRADLAPFWLRMQVRSAELSGHALVIDAEDTFTAMLAHVLRSSGLDVSVLRYDEPGLRELALAHEGPVVLGPGPGNPSDAADPKMRFLRALTADLVRDHRHGLLGVCLGHELIAAELGLEIVRKRTPFQGAQMRIDLFGQERTVGFYNSFTARCDERTATELALHRIEVSRDAETGEVHALRGPGFAGVQFHPESVLTTDGAALTASLLAGVLV", "B2": "MMP2 (Homo sapiens, UniProt P08253); chain YNFFPRKPKWDKNQITYRIIGYTPDLDPETVDDAFARAFQVWSDVTPLRFSRIHDGEADIMINFGRWEHGDGYPFDGKDGLLAHAFAPGTGVGGDSHFDDDELWTLGEGQVVRVKYGNADGEYCKFPFLFNGKEYNSCTDTGRSDGFLWCSTTYNFEKDGKYGFCPHEALFTMGGNAEGQPCKFPFRFQGTSYDSCTTEGRTDGYRWCGTTEDYDRDKKYGFCPETAMSTVGGNSEGAPCVFPFTFLGNKYESCTSAGRSDGKMWCATTANYDDDRKWGFCPDQGYSLFLVAAHEFGHAMGLEHSQDPGALMAPIYTYTKNFRLSQDDIKGIQELYGASPDIDLGTGPTPTLGPVTPEICKQDIVFDGIAQIRGEIFFFKDRFIWRTVTPRDKPMGPLLVATFWPELPEKIDAVYEAPQEEKAVFFAGNEYWIYSASTLERGYPKPLTSLGLPPDVQRVDAAFNWSKNKKTYIFAGDKFWRYNEVKKKMDPGFPKLIADAWNAIPDNLDAVVDLQGGGHSYFFKGAYYLKLENQSLKSVKFGSIKSDWLGC", "B3": "hdhb (Clostridium sardiniense, UniProt G9FRD6); chain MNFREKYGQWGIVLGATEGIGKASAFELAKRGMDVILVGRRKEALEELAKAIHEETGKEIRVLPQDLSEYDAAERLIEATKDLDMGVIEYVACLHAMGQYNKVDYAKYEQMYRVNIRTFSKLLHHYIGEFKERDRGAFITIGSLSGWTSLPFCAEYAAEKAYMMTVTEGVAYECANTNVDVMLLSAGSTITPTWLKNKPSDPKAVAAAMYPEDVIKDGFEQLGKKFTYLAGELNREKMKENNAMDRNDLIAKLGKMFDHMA", "B4": "ybiA (Escherichia coli, UniProt P30176); chain MPVRAQRIQHVMQDTIINFYSTSDDYGDFSNFAAWPIKVDGKTWPTSEHYFQAQKFLDEKYREEIRRVSSPMVAARMGRDRSKPLRKNWESVKEQVMRKALRAKFEQHAELRALLLATAPAKLVEHTENDAYWGDGGHGKGKNRLGYLLMELREQLAIEK", "B5": "enzyme D382E (Arabidopsis thaliana, UniProt O82390); chain MNARALLCSSNIHSLYTSNRPPEKTSSSRSLRNLKPSPKSLRVWIYPRNRSSVFRVLVRSSDKSESSNSYYVEGDKVSGNNDVVSDSPSSIVLPWWEEFPKRWVIVLLCFSAFLLCNMDRVNMSIAILPMSAEYGWNPATVGLIQSSFFWGYLLTQIAGGIWADTVGGKRVLGFGVIWWSIATILTPVAAKLGLPYLLVVRAFMGVGEGVAMPAMNNILSKWVPVQERSRSLALVYSGMYLGSVTGLAFSPFLIHQFGWPSVFYSFGSLGTVWLTLWLTKAESSPLEDPTLLPEERKLIADNCASKEPVKSIPWRLILSKPPVWALISCHFCHNWGTFILLTWMPTYYHQVLKFNLMESGLLSVFPWMTMAISANAGGWIAETLVSRGFSVTNVRKIMQTIGFLGPAFFLTQLKHIDSPTMAVLCMACSQGTDAFSQSGLYSNHQDIAPRYSGVLLGLSNTAGVLAGVLGTAATGHILQHGSWDDVFTISVGLYLVGTVIWNLFSTGEKIID", "B6": "UGT1A1 (Homo sapiens, UniProt P22309); chain HAGKILLIPVDGSHWLSMLGAIQQLQQRGHEIVVLAPDASLYIRDGAFYTLKTYPVPFQREDVKESFVSLGHNVFENDSFLQRVIKTYKKIKKDSAMLLSGCSHLLHNKELMASLAESSFDVMLTDPFLPCSPIVAQYLSLPTVFFLHALPCSLEFEATQCPNPFSYVPRPLSSHSDHMTFLQRVKNMLIAFSQNFLCDVVYSPYATLASEFLQREVTVQDLLSSASVWLFRSDFVKDYPRPIMPNMVFVGGINCLHQNPLSQEFEAYINASGEHGIVVFSLGSMVSEIPEKKAMAIADALGKIPQTVLWRYTGTRPSNLANNTILVKWLPQNDLLGHPMTRAFITHAGSHGVYESICNGVPMVMMPLFGDQMDNAKRMETKGAGVTLNVLEMTSEDLENALKAVINDKSYKENIMRLSSLHKDRPVEPLDLAVFWVEFVMRHKGAPHLRPAAHDLTWYQYHSLDVIGFLLAVVLTVAFITFKCCAYGYRKCLGKKGRVKKAHKSKTH", "note": "Each line is one published result; not all experiments were run side by side.", "UniProt P07914, sequence (whole entry, looked up)": "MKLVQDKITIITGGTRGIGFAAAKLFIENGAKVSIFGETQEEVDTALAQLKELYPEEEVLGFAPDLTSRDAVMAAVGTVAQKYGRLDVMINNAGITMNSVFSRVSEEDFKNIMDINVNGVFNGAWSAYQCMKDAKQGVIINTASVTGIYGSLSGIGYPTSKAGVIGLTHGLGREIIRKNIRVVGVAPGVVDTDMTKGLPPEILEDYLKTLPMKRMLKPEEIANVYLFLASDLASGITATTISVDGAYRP", "UniProt Q9UBT6, sequence (whole entry, looked up)": "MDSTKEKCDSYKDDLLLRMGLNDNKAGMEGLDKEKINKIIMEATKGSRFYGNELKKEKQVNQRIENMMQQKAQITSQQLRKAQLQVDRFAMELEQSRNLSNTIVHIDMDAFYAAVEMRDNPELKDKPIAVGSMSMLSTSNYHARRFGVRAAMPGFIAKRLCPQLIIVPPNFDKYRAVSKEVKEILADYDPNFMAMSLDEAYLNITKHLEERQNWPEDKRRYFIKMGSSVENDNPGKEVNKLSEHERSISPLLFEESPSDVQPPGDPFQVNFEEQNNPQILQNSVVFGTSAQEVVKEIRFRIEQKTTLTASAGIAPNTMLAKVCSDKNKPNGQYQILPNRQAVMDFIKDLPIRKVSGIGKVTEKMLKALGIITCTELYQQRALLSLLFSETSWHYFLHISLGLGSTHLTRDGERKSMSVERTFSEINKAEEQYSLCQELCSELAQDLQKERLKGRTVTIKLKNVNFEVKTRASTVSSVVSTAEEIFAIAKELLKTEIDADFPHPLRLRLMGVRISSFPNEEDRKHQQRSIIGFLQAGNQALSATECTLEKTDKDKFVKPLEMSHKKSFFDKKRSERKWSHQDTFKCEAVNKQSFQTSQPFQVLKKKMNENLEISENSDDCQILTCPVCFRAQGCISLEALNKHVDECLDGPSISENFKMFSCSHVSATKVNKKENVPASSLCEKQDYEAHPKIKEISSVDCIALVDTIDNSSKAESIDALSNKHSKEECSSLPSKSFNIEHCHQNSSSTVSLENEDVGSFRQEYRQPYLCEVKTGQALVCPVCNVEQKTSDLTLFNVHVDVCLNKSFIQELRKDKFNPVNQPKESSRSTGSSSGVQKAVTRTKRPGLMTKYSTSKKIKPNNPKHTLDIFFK", "UniProt Q7L266, sequence (whole entry, looked up)": "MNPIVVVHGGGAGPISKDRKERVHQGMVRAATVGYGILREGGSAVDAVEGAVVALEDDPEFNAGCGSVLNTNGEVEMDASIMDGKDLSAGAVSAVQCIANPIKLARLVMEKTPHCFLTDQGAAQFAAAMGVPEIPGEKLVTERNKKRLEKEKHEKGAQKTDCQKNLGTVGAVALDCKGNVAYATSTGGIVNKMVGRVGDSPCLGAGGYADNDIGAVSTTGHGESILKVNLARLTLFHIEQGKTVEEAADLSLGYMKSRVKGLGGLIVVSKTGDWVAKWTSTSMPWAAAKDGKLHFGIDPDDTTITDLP", "UniProt Q8QZR1, sequence (whole entry, looked up)": "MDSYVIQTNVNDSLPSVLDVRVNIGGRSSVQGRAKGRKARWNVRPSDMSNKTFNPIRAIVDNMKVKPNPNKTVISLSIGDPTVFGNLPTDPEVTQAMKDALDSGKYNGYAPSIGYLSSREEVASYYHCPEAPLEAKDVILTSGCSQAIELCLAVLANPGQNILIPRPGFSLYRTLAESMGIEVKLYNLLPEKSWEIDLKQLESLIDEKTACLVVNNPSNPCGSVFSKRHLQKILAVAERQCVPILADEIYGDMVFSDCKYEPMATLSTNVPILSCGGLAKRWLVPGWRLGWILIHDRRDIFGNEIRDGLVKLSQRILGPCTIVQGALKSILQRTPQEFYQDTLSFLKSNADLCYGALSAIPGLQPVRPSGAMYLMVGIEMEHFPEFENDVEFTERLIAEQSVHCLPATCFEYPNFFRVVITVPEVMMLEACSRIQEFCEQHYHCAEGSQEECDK"}
{"Substance": "POLK (Homo sapiens, UniProt Q9UBT6)", "substrate": "Nc1ccn([C@H]2C[C@H](O)[C@@H](COP(=O)(O)OP(=O)(O)OP(=O)(O)O)O2)c(=O)n1", "conditions": "pH 7.5, 23 °C, MgCl2 5 mM, together with: G template", "Km": "0.52 µM"}
{"Substance": "BaiA1 (Clostridium scindens, UniProt P07914)", "substrate": "C[C@H](CCC(=O)SCCNC(=O)CCNC(=O)[C@H](O)C(C)(C)COP(=O)(O)OP(=O)(O)OC[C@H]1O[C@@H](n2cnc3c(N)ncnc32)[C@H](O)[C@@H]1OP(=O)(O)O)[C@H]1CC[C@H]2[C@@H]3[C@H](O)C[C@@H]4C[C@H](O)CC[C@]4(C)[C@H]3CC[C@]12C", "conditions": "pH 8.7, 37 °C, together with: NAD+", "Km": "53 µM"}
{"Substance": "Tat (Mus musculus, UniProt Q8QZR1)", "substrate": "N[C@@H](Cc1ccc(O)cc1)C(=O)O", "conditions": "pH 7, 38 °C, 100 mM phosphate, together with: 10 mM KGA; PLP", "Km": "1800 µM"}
{"Substance": "B1 (anthranilate synthase)", "substrate": "NC(=O)CC[C@H](N)C(=O)O", "conditions": "pH 7.5, 30 °C, together with: chorismate saturating; MgCl2 12.5 mM", "Km": "840 µM"}
{"Substance": "B2 (MMP2)", "substrate": "CSCC[C@H](NC(=O)CNC(=O)[C@H](CC(C)C)NC(=O)[C@@H]1CCCN1C(=O)CNC(C)=O)C(=O)N[C@@H](Cc1c[nH]cn1)C(=O)NCC(=O)N[C@@H](CCCCN)C(N)=O", "Km": "3560 µM"}
{"Substance": "B3 (hdhb)", "substrate": "NC(=O)c1ccc[n+]([C@@H]2O[C@H](COP(=O)(O)OP(=O)(O)OC[C@H]3O[C@@H](n4cnc5c(N)ncnc54)[C@H](O)[C@@H]3O)[C@@H](O)[C@H]2O)c1", "conditions": "pH 8, 25 °C, cofactor varied", "Km": "2620 µM"}
{"Substance": "B4 (ybiA)", "substrate": "Nc1c(N[C@@H]2O[C@H](COP(=O)(O)O)[C@@H](O)[C@H]2O)[nH]c(=O)[nH]c1=O", "conditions": "pH 8, 22 °C, substrate not purified", "Km": "5840 µM"}
{"Substance": "B5 (enzyme D382E)", "substrate": "O=P(O)(O)O", "conditions": "pH 6.5, 25 °C, apparent, not purified", "Km": "46.2 µM"}
{"Substance": "enzyme (Trypanosoma cruzi, UniProt Q4DSA0)", "substrate": "N=CN[C@@H](CCC(=O)O)C(=O)O", "conditions": "pH 9.5, 22 °C, apparent", "Km": "40000 µM"}
{"Substance": "pgmB T16P (Lactococcus lactis) (sequence not shown)", "substrate": "O=P(O)(O)OC[C@H]1O[C@@H](OP(=O)(O)O)[C@H](O)[C@@H](O)[C@@H]1O", "conditions": "pH 7, 25 °C", "Km": "10 µM"}
{"Substance": "B6 (UGT1A1)", "substrate": "COc1cc2c(cc1CC=C(C)C)C(=O)C[C@@H](c1ccc(O)cc1)O2", "conditions": "pH 7.4, 37 °C", "Km": "3 µM"}
{"Substance": "ASRGL1 (Homo sapiens, UniProt Q7L266)", "substrate": "COC(=O)[C@H](Cc1ccccc1)NC(=O)C[C@H](N)C(=O)O", "conditions": "pH 7.4, 37 °C, NaCl 100 mM", "Km": "1600 µM"}
{"note": "Excerpt of the above:"}
{"Substance": "B5 (enzyme D382E)", "substrate": "O=P(O)(O)O", "conditions": "pH 6.5, 25 °C, apparent, not purified", "Km": "46.2 µM"}
{"Substance": "enzyme (Trypanosoma cruzi, UniProt Q4DSA0)", "substrate": "N=CN[C@@H](CCC(=O)O)C(=O)O", "conditions": "pH 9.5, 22 °C, apparent", "Km": "40000 µM"}
